Assay results pooled from the literature.
Each line is one published result; not all experiments were run side by side.

| SMILES | test | test system | conditions | quantity | value |
| --- | --- | --- | --- | --- | --- |
| NC1(C(=O)N[C@@H](CCO)c2ccc(Cl)cc2)CCN(c2nc[nH]c3nccc2-3)CC1 | – | metastatic CRPC patients | 480 mg b.i.d., grade 3 to 4, treatment-related, together with: enzalutamide 160 mg daily | incidence of Somnolence | 0% |
| NCCONC(=O)[C@@H]1CC[C@@H]2CN1C(=O)N2OS(=O)(=O)O | – | healthy Chinese male subjects | intravenous, 1 g | incidence of serious adverse events | 0% |
| C[C@@H](N)C1CCN(S(=O)(=O)c2cccc3cnccc23)CC1 | – | healthy volunteers | 150 mg, fed | incidence of mental impairment TEAE | 0% |
| N#CCNC(=O)c1ccc(-c2ccnc(Nc3ccc(N4CCOCC4)cc3)n2)cc1 | – | patients with myelofibrosis | oral, 200 mg, 24 weeks, phase III trials | incidence of grade 3/4 anaemia | 7.7% |
| O=C(Nc1nc2cccc(-c3ccc(CN4CCS(=O)(=O)CC4)cc3)n2n1)C1CC1 | – | rheumatoid arthritis patients | oral, 300 mg once daily, 4 weeks, TEAE regardless of relatedness | incidence of gastritis | 0% |
| COc1ccc([C@@H](O)c2cc(-c3ncnc4cc(N5CCOCC5)ccc34)c(F)cc2Cl)nn1 | – | locally advanced rectal cancer | oral, 50 mg, together with: capecitabine and radiotherapy | incidence of proctalgia TEAE | 0% |
| C[C@@H](c1ccc2nccn2c1)n1nnc2ncc(-c3cnn(C)c3)nc21 | refers to: decreased appetite | EGFR-mutant MET-altered NSCLC patients | oral, dose not given, AE grade ≥3, all | incidence of treatment-related AEs | 1% |
| CCO[C@H]1CCN(Cc2c(OC)cc(C)c3[nH]ccc23)[C@H](c2ccc(C(=O)O)cc2)C1 | – | PNH patients, active haemolysis | oral, 200 mg, treatment | incidence of pyrexia | 0% |
| C=CC(=O)Nc1cc(Nc2nccc(-c3cn(C)c4ccccc34)n2)c(OC)cc1N(C)CCN(C)C | refers to: AST increased | EGFR-mutant MET-altered NSCLC patients | oral, dose not given, AE grade ≥3, all | incidence of treatment-related AEs | 6% |
| Cc1cc(-c2nnc(N)nc2-c2ccc(F)cc2)cc(Cl)n1 | refers to: myositis, all grades | post-IO NSCLC patients | oral, 100 mg once daily | incidence of AE, immune-mediated, treatment-related | 0% |

A few entries again:
| SMILES | test | test system | conditions | quantity | value |
| --- | --- | --- | --- | --- | --- |
| CCO[C@H]1CCN(Cc2c(OC)cc(C)c3[nH]ccc23)[C@H](c2ccc(C(=O)O)cc2)C1 | – | PNH patients, active haemolysis | oral, 200 mg, treatment | incidence of pyrexia | 0% |
